Measurements gathered from unrelated publications.
Protocols differ between the studies behind these lines. “And” joins repeats or separate records; there may be more than shown. ± gives the spread as reported.

Compound	test	system	setting	how to read	measurement	value
C[C@H]1C[C@H]2CSC(N)=N[C@@]2(c2nc(NC(=O)c3ccc(OC(F)F)cn3)cs2)CO1	measured: Aβx-40	healthy adults, plasma	200 mg single dose, 6 h post-dose	baseline: placebo	percent change from baseline	-65.1%
CC[C@@H](C)[C@@H](NC(=O)[C@@H](Cc1ccc(O)cc1)NC(=O)[C@H]1CCCN1C(=O)[C@@H](CCCNC(=N)N)NC(=O)[C@H](N)Cc1c[nH]cn1)C(=O)N[C@H](C)C(=O)N[C@H](Cc1c[nH]cn1)C(=O)N[C@H](CCCNC(=N)N)C(=O)N[C@@H](C(=O)N[C@H](Cc1ccc(O)cc1)C(=O)N[C@H](CO)C(=O)N[C@H](Cc1ccccc1)C(N)=O)C(C)C	ex vivo flow cytometry	B16 tumour-bearing mice, tumour	dose not given	–	IFN-γ+ CD4+ T cell frequency	3.77% and 3.02% and 5.55% and 6.31% and 4.66%
N#Cc1ccc2c(c1)[C@H]1CCCN(C(=O)c3ccc4[nH]cnc4c3)[C@H]1C2	–	human, plasma	10 mg, day 15, 360 h	baseline: placebo and baseline	change in fasting insulin	-9.4%
Oc1c(Br)cc(Oc2ccc(Br)cc2Br)cc1Br	glucuronidation	human liver microsomes	–	–	Vmax/Km	116 ± 14.2 µL/min/mg
NCC(=O)Nc1cncc(-c2nn3c(=O)cc(N4CCNCC4)nc3s2)c1	ADP-induced platelet aggregation, light transmission aggregometry	human, stable CAD on aspirin, platelets ex vivo	subcutaneous, 0.075 mg/kg, 180 min post-dose, with: ADP 20 µM	–	median inhibition	0.95%
c1ccc(-c2n[nH]cc2-c2ccnc3ccccc23)nc1	kinase binding, competitor, MIB/MS competition, measured: HSL1	Candida albicans cell lysate	1 µM	baseline: DMSO	log2 fold change	1.18
FC(F)(F)Oc1cccc(-c2cnc3ccc(-c4ccncc4)nn23)c1	–	MDA-MB-231 xenograft, NSG mouse	oral, 10 mg/kg daily, day 13	higher = larger tumour	tumour size	0.148 a.u. and 0.117 a.u. and 0.172 a.u. and 0.126 a.u. and 0.075 a.u.
COc1cc2cc(-c3ccc(CC(=O)Nc4cc(C(C)(C)C(F)(F)F)no4)cn3)cnc2cc1OC	RECIST v1.1	human RET-altered solid tumours	11 50 mg tablets, phase I	–	disease control rate	78%
N#Cc1ccn2c(-c3ccncc3)c(-c3ccc(F)cc3)nc2c1	kinase binding, competitor, MIB/MS competition, measured: SHA3	Candida albicans cell lysate	10 µM	baseline: DMSO	log2 fold change	-0.113
CC(C)(C)c1cc(C(C)(C)CO)c(O)cc1NC(=O)c1c[nH]c2ccccc2c1=O	–	isolated rat colon	1 nM to 10 µM	–	contraction AUC	no effect
Cc1cn(-c2cc(NC(=O)c3ccc(C)c(Nc4nccc(-c5cccnc5)n4)c3)cc(C(F)(F)F)c2)cn1	measured: total tau	human, cerebrospinal fluid	dose not given, 6 months versus baseline, unit not given	baseline: placebo	median difference in change	47.6
COc1ncc(-c2nc3c(n2C(C)C)[C@H](c2ccc(Cl)cc2)N(c2cc(Cl)cn(C)c2=O)C3=O)c(OC)n1	International Working Group criteria	human acute myeloid leukemia patients	oral, 250 mg, response CR, high-dose, recommended dose for expansion	–	best overall response	6.7%
C[C@@H]1CCC[C@H](n2cnc(-c3cc(Cl)ccc3-n3cc(Cl)nn3)cc2=O)c2cc(ccn2)-c2c(cnn2C(F)F)NC1=O	–	pooled normal human plasma	IC2× aPTT, Actin FS reagent	–	concentration for aPTT prolongation	140 nM
C[C@H]1O[C@@H](O[C@H]2CC[C@@]3(C)[C@@H](CC[C@]4(C)[C@@H]3C=C[C@]35OC[C@@]6(CCC(C)(C)C[C@H]63)[C@@H](O)C[C@]54C)[C@]2(C)CO)[C@H](O)[C@@H](O[C@@H]2O[C@H](CO)[C@@H](O)[C@H](O)[C@H]2O)[C@H]1O	Western blot	ethanol-fed mice, liver	dose not given, -H dose	baseline: control mice	SIRT1 to β-actin ratio	1.55 fold change and 1.15 fold change and 0.798 fold change
Cc1n[nH]c2ccc(-c3cc(OC[C@@H](N)Cc4ccccc4)cnc3-c3ccoc3)cc12	kinase binding, competitor, MIB/MS competition, measured: SAK1	Candida albicans cell lysate	100 nM	baseline: DMSO	log2 fold change	0.0968
C=CCn1c(=O)c2cnc(Nc3ccc(N4CCN(C)CC4)cc3)nc2n1-c1ccc2c(n1)[C@@](O)(CC)CC2	–	PC-9 xenograft, CB17 SCID mice	oral, 80 mg/kg, day 18, once daily x 19	–	tumour volume difference	299 ± 12.9 mm3
COc1nc(NCc2cn(-c3ccc(NC(=O)c4ccc(Br)cc4)cc3)nn2)nc(OC)n1	MTT	normal colonocytes, rat	72 h	–	maximum non-toxic concentration	1.34 ± 0.16 nM
N=C(N)NCCC[C@H](NC(=O)[C@H](CCCNC(=N)N)NC(=O)[C@H](CCCCN)NC(=O)[C@H](CCC(N)=O)NC(=O)[C@H](CCCCN)NC(=O)[C@H](Cc1ccc(O)cc1)NC(=O)[C@@H](N)CCCCN)C(=O)N[C@@H](CO)C(=O)N[C@@H](Cc1ccc(O)cc1)C(=O)N[C@@H](CCCCN)C(=O)O	–	human, dentin hypersensitivity patients, aged ≥sample A years	topical to tooth, 5 µg/tooth, day 36, phase trial	direction not given	change from baseline in VAS score	-11.5 ± 16.3
C[C@H](Oc1ccc(Br)cc1-c1ccon1)C(=O)O	muscle velocity recovery cycle	human, tibialis anterior muscle	600 mg once daily, last response peak at 30 Hz, multiple ascending dose	–	difference from placebo	6.78%
COc1cc(O)c(CC=C(C)C)c(O)c1C(=O)/C=C/c1ccc(O)cc1	–	male Tac:SW mice, conventional and germ-free	in high-fat diet, dose not given	baseline: high-fat diet alone	liver weight	no effect
CC(c1cc2ccccc2s1)N(O)C(N)=O (stereo not drawn)	–	human blood	3 µM, with: A23187	–	TXB2 level	746 ± 381 pg/mL
COc1nc(-c2cc(C)c(N[C@@H](C)c3cc(F)cc(F)c3)nn2)ccc1-n1cnc(C)c1	measured: Aβ42	rat Sprague-Dawley male, CSF	oral, 5 mg/kg daily for 9 days, 4 h after dose	baseline: vehicle	change in level	41%
O=c1cc(-c2ccc(O)cc2)oc2c([C@@H]3OC[C@H](O)[C@H](O)[C@H]3O)c(O)c([C@@H]3O[C@H](CO)[C@@H](O)[C@H](O)[C@H]3O)c(O)c12	–	HFpEF mice	oral, 20 and 40 mg/kg/day	–	E/E′ ratio	decreased

Compound	test	system	setting	how to read	measurement	value
CSCCNc1nc(SCCC(F)(F)F)nc2c1ncn2[C@@H]1O[C@H](COP(=O)(O)OP(=O)(O)C(Cl)(Cl)P(=O)(O)O)[C@@H](O)[C@H]1O	light transmittance aggregometry	human patients, platelet-rich plasma	dose not given, 3 h, with: ADP 5 µM	baseline: patients	patients with IPA above 80%	2.6%
Cn1cc(Nc2nccc(-c3ccc4c(c3)CN(C3COC3)CC[C@H]4NC(=O)c3cn(C(C)(C)C)nn3)n2)cn1	measured: Oxidative Stress Response, NRF2-mediated	splenic B cells, mouse	in vivo, 30 mg/kg, IgD-activated B cells	baseline: vehicle, positive = activation	pathway activation z-score	0.471
O=C(OC(C(F)(F)F)C(F)(F)F)N1CCN(Cc2cccc(Oc3ccccc3)c2)CC1	PET blocking study	rhesus monkey, brain Pons	0.01 mg/kg, compound pretreatment, with: [18F]T-401 tracer	–	k3	0.026 min⁻¹
O=C(O)CNC(=O)Cc1ccccc1	–	ventricular cardiomyocytes, C57BL/6 mouse	dose not given, 0.164 s	–	sarcomere length	1.64 µm
FC(F)(F)Oc1cccc(-c2ccnc3[nH]c(C(F)(F)F)nc23)c1	–	GAN diet MASH mice	300 mg/kg, 31 days	baseline: GAN control	liver triglycerides	decreased
CCN1CCN(Cc2ccc(Nc3ncc(F)c(-c4cc(F)c5nc6n(c5c4)[C@H](C)CCC6)n3)nc2)CC1	–	human advanced solid tumours	100 mg, phase Ia monotherapy RECIST 1.1	–	disease control rate	75%
CCN(Cc1nc2c(N)nc3cc(-c4cc[nH]n4)ccc3c2[nH]1)C(C)=O	Kaplan-Meier	advanced solid tumour patients	dose not given, 12 months	–	overall survival rate	23%
OC(CCN1CCCCC1)(c1ccccc1)C1CC2C=CC1C2 (stereo not drawn)	resting-state EEG	healthy elderly humans	oral, 4 mg, eyes open, LS mean	–	power, EEG beta, O2-Pz	6.5 µV²
C=CC(=O)Nc1cc(Nc2nccc(Nc3cc(Cl)c(F)cc3C(C)(C)O)n2)c(OC)cc1N1CC[C@@H](N(C)C)C1	–	human, EGFR exon20ins NSCLC	dose 100 mg and above	–	disease control rate	86.8%
Cc1cc(F)cc2c(CCC(=O)N[C@@H]3C(=O)NC[C@H]3O)c(-c3ccc(F)cc3)[nH]c12	–	APOL1 G2 mice, IFNγ-induced	30 mg/kg twice daily, day 13	–	urine albumin/creatinine ratio	1570 µg/mg and 305 µg/mg and 89 µg/mg and 302 µg/mg and 180 µg/mg
CCCCCCCC(=O)c1c(OC)cc(OC)cc1C(=O)OC	comet	male Swiss mice	dose not given, with: cyclophosphamide	–	reduction of DNA damage	≤ 33.8%
CN(C(=O)n1cnc(-c2ccc[n+]([O-])c2)c1)C1CCCCC1	measured: OEA	human, plasma	40 mg single dose	–	AUC(0-t)	867 ng·h/mL
NC(=O)c1cnc2[nH]ccc2c1N[C@@H]1[C@@H]2CC3C[C@H]1C[C@@](O)(C3)C2	CD4+ memory T cells, flow cytometry	Caucasian humans, peripheral blood	60 mg single dose	baseline: baseline	percent change	-0.5%
C[C@@H](Nc1cc(F)cc(F)c1)c1cc(C(=O)N(C)C)cc2c(=O)cc(N3CCOCC3)oc12	immunohistochemistry, measured: phospho-PRAS40	human, tumor biopsy	oral, 120 mg twice daily continuous, 360 h after first dose	baseline: baseline, direction not given	pPRAS40 H-score change	-45%
Cc1noc(C)c1-c1cc(C(O)(c2ccccn2)c2ccccn2)c2nc(C3CC3)[nH]c2c1	measured: HEXIM1 expression	human patients, peripheral blood	dose not given, day 1, 24 h, with: enzalutamide 6 mg	–	maximum induction	63%
CC1(C)CCC(c2ccc(Cl)cc2)=C(CN2CCN(c3ccc(C(=O)NS(=O)(=O)c4ccc(N[C@H](CCN5CCOCC5)CSc5ccccc5)c(S(=O)(=O)C(F)(F)F)c4)cc3)CC2)C1	cell kill	primary neoplastic T lymphocytes, dog 17	24 h, T-cell CLL	–	EC50	63 nM
Cc1coc([C@H]2C[C@H]3[C@@H](CF)SC(N)=N[C@@]3(c3ccc(F)cc3F)CO2)n1	measured: Aβx-42	Mus musculus wild-type, brain	subcutaneous, 80 mg/kg, 3 h	–	Aβ42 level	0.48 ng/g
CN[C@@H]1COc2c(S(=O)(=O)NC(=O)Nc3c4c(cc5c3CCC5)CCC4)cnn2C1	measured: IL-18	human participants, whole blood ex vivo	1800 mg single dose, 336 h, IL-18, circulating, adjusted for, with: LPS/ATP	baseline: baseline	inhibition	35.5%
C[C@@H](NC(=O)N1C(=O)[C@H](Cc2ccnc(N)c2)[C@H]1C(=O)O)C1CCCCC1	–	human	iv infusion, 1.0 mg/kg/h, 24 h, unit not given	baseline: baseline	PT Emax	1.04
Cc1cc([C@H]2C[C@H]3[C@@H](CF)SC(N)=N[C@@]3(c3ccc(F)cc3F)CO2)on1	measured: Aβx-42	Mus musculus wild-type, brain	subcutaneous, 100 mg/kg, 7 h	–	Aβ42 level	0.47 ng/g
COc1ccc(NC(=O)c2ccc(-n3cc(CNc4nc(OC)nc(OC)n4)nn3)cc2)cc1	MTT	normal colonocytes, rat	72 h	–	maximum non-toxic concentration	31.43 ± 0.23 nM
CC(C)NCC(O)c1ccc(O)c(O)c1 (stereo not drawn)	–	ventricular cardiomyocytes, C57BL/6 mouse	dose not given, 0.652 s	–	sarcomere length	1.72 µm
